Published values collected from several papers.
Lines come from different studies, so protocols differ.
Organism: Staphylococcus aureus

| SMILES | test | test system | conditions | MIC |
| --- | --- | --- | --- | --- |
| CC[C@H](C)[C@H](NC(=O)[C@H](Cc1c[nH]c2ccccc12)NC(=O)[C@@H](NC(=O)[C@H](Cc1ccccc1)NC(=O)[C@@H]1CCCN1C(=O)[C@@H](NC(=O)[C@H](C)N)[C@@H](C)CC)[C@@H](C)CC)C(=O)N[C@@H](Cc1ccccc1)C(=O)N[C@@H](CCCNC(=N)N)C(=O)N[C@@H](CC(C)C)C(=O)N[C@@H](CC(C)C)C(=O)N[C@@H](CCCNC(=N)N)C(=O)N[C@@H](CCCCN)C(=O)NCC(N)=O | broth microdilution | ATCC 19609 | 18 h, 37 °C | 3.75 µM |
| Cn1c(=O)ccc2ccc(F)c(CCNC[C@@H]3CN(c4cnc5c(n4)NC(=O)CO5)C(=O)O3)c21 | – | ATCC 29213 | – | 8 ng/mL |
| N=C(N)NCCC[C@H](NC(=O)[C@@H](N)CCCNC(=N)N)C(=O)N[C@@H](Cc1c[nH]c2ccccc12)C(=O)N[C@@H](Cc1c[nH]c2ccccc12)C(=O)N[C@@H](Cc1ccccc1)C(=O)N[C@@H](CCC(N)=O)C(=O)N[C@@H](Cc1ccccc1)C(=O)N[C@@H](CCC(N)=O)C(=O)N[C@@H](Cc1ccccc1)C(=O)N[C@@H](CCCCN)C(N)=O | broth microdilution, optical density | ATCC 25923 | – | 570 µM |
| CN[C@H](CC(C)C)C(=O)N[C@H]1C(=O)N[C@@H](CC(N)=O)C(=O)N[C@H]2C(=O)N[C@H]3C(=O)N[C@H](C(=O)N[C@H](C(=O)O)c4cc(O)cc(O)c4-c4cc3ccc4O)[C@H](O)c3ccc(c(Cl)c3)Oc3cc2cc(c3O[C@@H]2O[C@H](CO)[C@@H](O)[C@H](O)[C@H]2O[C@H]2C[C@](C)(N)[C@H](O)[C@H](C)O2)Oc2ccc(cc2Cl)[C@H]1O | – | NRS402 VISA | – | 5 µM |
| CC[C@H](C)[C@H](NC(=O)[C@H](CCCCN)NC(=O)[C@H](CCCCN)NC(=O)CNC(=O)[C@H](CCCCN)NC(=O)[C@H](CC(C)C)NC(=O)[C@H](CCCCN)NC(=O)[C@H](CCCNC(=N)N)NC(=O)[C@@H](NC(=O)[C@H](CC(C)C)NC(=O)[C@H](CCCNC(=N)N)NC(=O)[C@@H](N)CCCNC(=N)N)[C@@H](C)CC)C(=O)N[C@@H](Cc1ccc(O)cc1)C(=O)N[C@@H](CC(C)C)C(=O)N[C@@H](Cc1ccc(O)cc1)C(=O)N[C@@H](Cc1ccccc1)C(=O)N[C@@H](CCCCN)C(=O)N[C@@H](CC(C)C)C(=O)N[C@@H](CCC(N)=O)C(=O)N[C@@H](CC(C)C)C(=O)N[C@@H](CC(C)C)C(=O)N[C@@H](CCCCN)C(=O)N[C@@H](CCCCN)C(N)=O | – | KCTC 1621, Mueller-Hinton broth | with: 2.5 mM CaCl2 | 16 µM |
| c1ccc(CCOC2CCCc3c2[nH]c2ccccc32)cc1 (stereo not drawn) | broth microdilution | SG511 | – | > 16000 ng/mL |
| CCCCCC(=O)N[C@@H](CCCNC(=N)N)C(=O)N[C@@H](CCCNC(=N)N)C(=O)N[C@@H](CCCNC(=N)N)C(=O)N[C@@H](CCCNC(=N)N)C(=O)N[C@H](C(=O)N[C@@H](CC(C)C)C(=O)N[C@H](C(=O)N[C@@H](CCCCN)C(=O)N[C@@H](CCCCN)C(=O)N[C@H](C(=O)N[C@@H](CC(C)C)C(=O)N[C@@H](CCCCN)C(=O)N[C@@H](CC(C)C)C(=O)N[C@@H](CCCCN)C(=O)N[C@@H](CO)C(=O)N[C@@H](CO)C(=O)N[C@@H](C)C(=O)N[C@@H](Cc1ccc(O)cc1)C(N)=O)C(C)C)[C@@H](C)CC)[C@@H](C)CC | broth microdilution | – | 24 h, 37 °C | 64 µM |
| CC(C)C[C@@H](NC(=O)CNC(=O)[C@@H](CCCCN)NC(=O)[C@@H](CC(C)C)NC(=O)[C@@H](CCCCN)NC(=O)[C@@H](CCCNC(=N)N)NC(=O)[C@@H](CC(C)C)NC(=O)[C@@H](CC(C)C)NC(=O)[C@@H](CCCNC(=N)N)NC(=O)[C@H](N)CCCNC(=N)N)C(=O)N[C@H](CCCCN)C(=O)N[C@H](CCCCN)C(=O)N[C@H](Cc1ccc(O)cc1)C(=O)N[C@H](CC(C)C)C(=O)N[C@H](Cc1ccc(O)cc1)C(=O)N[C@H](Cc1ccccc1)C(=O)N[C@H](CCCCN)C(=O)N[C@H](CC(C)C)C(=O)N[C@H](CCC(N)=O)C(=O)N[C@H](CC(C)C)C(=O)N[C@H](CC(C)C)C(=O)N[C@H](CCCCN)C(=O)N[C@H](CCCCN)C(N)=O | – | CCARM 3089, methicillin-resistant, Mueller-Hinton broth | 24 h | 4 µM |
| CC[C@H](C)[C@H](NC(=O)[C@H](CC(C)C)NC(=O)[C@@H](NC(=O)[C@H](Cc1ccc(O)cc1)NC(=O)[C@H](CO)NC(=O)CNC(=O)[C@H](CCCNC(=N)N)NC(=O)[C@H](CCCNC(=N)N)NC(=O)[C@H](CCCNC(=N)N)NC(=O)[C@@H]1CCCN1C(=O)[C@H](CCCCN)NC(=O)[C@H](Cc1c[nH]c2ccccc12)NC(=O)[C@@H](NC(=O)[C@H](Cc1c[nH]c2ccccc12)NC(=O)[C@H](CCCCN)NC(=O)[C@H](CCCNC(=N)N)NC(=O)[C@H](CCCNC(=N)N)NC(=O)[C@@H]1CCCN1C(=O)[C@H](CO)NC(=O)[C@H](CCCNC(=N)N)NC(=O)[C@H](CO)NC(=O)[C@H](CCCNC(=N)N)NC(=O)[C@@H](N)CCCNC(=N)N)[C@@H](C)O)[C@@H](C)O)C(=O)N[C@@H](CO)C(=O)N[C@@H](CCC(N)=O)C(=O)NCC(=O)NCC(=O)N[C@@H](CC(N)=O)C(=O)O | – | CMCC 26003 | highest concentration 50 µM | 21.8 µM |
| CC[C@H](C)[C@H](N)C(=O)N[C@@H](CC(C)C)C(=O)NCC(=O)N[C@H](CCCNC(=N)N)C(=O)N[C@H](C(=O)N[C@@H](Cc1c[nH]c2ccccc12)C(=O)N[C@@H](CCCCN)C(=O)NCC(=O)N[C@H](C(=O)N[C@@H](CCCCN)C(=O)N[C@@H](CC(=O)O)C(=O)N[C@H](C(=O)N[C@@H](CC(C)C)C(N)=O)[C@@H](C)CC)[C@@H](C)CC)[C@@H](C)CC | broth microdilution | MRSA ATCC 33591, Mueller-Hinton broth | 16 h, 37 °C | 12.5 µM |
| CC[C@H](C)[C@H](NC(=O)[C@H](CC(C)C)NC(=O)[C@H](CCCCN)NC(=O)[C@@H](NC(=O)[C@H](C)NC(=O)[C@H](CCC(=O)O)NC(=O)[C@H](Cc1c[nH]cn1)NC(=O)[C@@H](NC(=O)[C@H](CCCCN)NC(=O)[C@H](CCC(N)=O)NC(=O)[C@H](Cc1ccccc1)NC(=O)[C@@H](NC(=O)[C@H](CCCCN)NC(=O)[C@@H](N)CCCCN)C(C)C)[C@@H](C)CC)[C@@H](C)CC)C(N)=O | CLSI broth microdilution | ATCC 25923 | 18 h, 37 °C | 32 µM |
| CC[C@H](C)[C@H](NC(=O)[C@H](CCCCN)NC(=O)[C@@H]1CCCN1C(=O)[C@H](CCCNC(=N)N)NC(=O)[C@H](Cc1ccc(O)cc1)NC(=O)[C@H](CCCNC(=N)N)NC(=O)[C@H](CCCNC(=N)N)NC(=O)[C@@H](NC(=O)[C@H](CCCNC(=N)N)NC(=O)[C@H](CCCNC(=N)N)NC(=O)[C@H](CC(C)C)NC(=O)[C@H](Cc1ccccc1)NC(=O)[C@H](CCCNC(=N)N)NC(=O)[C@H](CO)NC(=O)[C@H](Cc1ccccc1)NC(=O)[C@@H](N)CCCNC(=N)N)C(C)C)C(=O)N[C@@H](CO)C(=O)N[C@@H](Cc1ccccc1)C(=O)N[C@@H](CC(N)=O)C(=O)N[C@@H](CC(C)C)C(=O)N[C@@H](CCC(=O)O)C(=O)N1CCC[C@H]1C(=O)N[C@@H](Cc1ccccc1)C(=O)N[C@@H](Cc1ccccc1)C(=O)N[C@@H](CCCCN)C(=O)N[C@@H](Cc1ccccc1)C(=O)O | broth microdilution | ATCC 29213, Mueller-Hinton broth | 16 to 20 h, 37 °C | 2.54 µM |
